Experimental data gathered from unrelated publications.
Each line is one published result; not all experiments were run side by side. Values joined by “and” are separate records of one study, mostly repeats; a detail may differ. ± marks the error that the study gave.

SMILES	tested on	assay	test system	conditions	how to read	measurement	result
O=C(CNC(=O)c1ccc(Cl)c(C(F)(F)F)c1)Nc1ccc2[nH]nc(/C=C/c3ccccn3)c2c1	BaF3	cell growth or viability, CCK-8	–	–	–	GI50	> 10000 nM
Cc1ncsc1-c1ccc(C(C)NC(=O)C2CC(O)CN2C(=O)C(NC(=O)CCCCCCCCCCN2CCCC(Nc3ncc(Cl)c(Nc4ccccc4S(=O)(=O)C(C)C)n3)C2)C(C)(C)C)cc1 (stereo not shown)	22Rv1	RNA-seq, item: ZFP41 mRNA	–	concentration not given	baseline: DMSO	log2 fold change	-1.01
C=CC(=O)Oc1ccc(OC)c(-c2c[nH]c3ncc(-c4cncc(C(=O)N(C)C)c4)cc23)c1	BaF3	cell growth or viability	–	–	–	GI50	> 1000 nM
O=C(CN1CCCCC1)Nc1ccc([C@H]2[C@@H](F)[C@@H](F)C[C@@H](F)[C@H]2F)cc1	–	–	cryopreserved rat hepatocytes	1 µM	–	hepatic clearance	34 mL/min/kg
CC(=O)N[C@@H](CC(=O)O)C(=O)N[C@@H](Cc1ccc2ccccc2c1)C(=O)N[C@@H](C)C(=O)N[C@@H](CC(=O)O)C(=O)COC(=O)c1c(C)cccc1C	THP-1 cells, LPS-primed	pyroptosis, LDH release	–	25 µM, LPS 1 µg/mL, 4 h, together with: nigericin 5 µM, 2 h	–	cell lysis	90.6% and 70.7%
O=S(=O)(Nc1ccc(OC(F)(F)F)cc1)N1CCCC(C2c3ccc(F)cc3CCc3cc(F)ccc32)C1 (stereo not shown)	D425	immunoblot, item: AKT	–	concentration not given	–	phosphorylation level	decreased
CC(C)C[C@H](NC(=O)[C@@H](CCCCNC(=O)[C@@H](Cc1ccccc1)NC(=O)CCCCCNC(=O)CN1CCN(CC(=O)O)CCN(CC(=O)O)CCN(CC(=O)O)CC1)NC(=O)[C@H](Cc1ccc(O)cc1)NC(=O)[C@H](CO)NC(=O)[C@H](Cc1c[nH]c2ccccc12)NC(=O)[C@H](Cc1c[nH]cn1)NC(=O)[C@@H]1CCC(=O)N1)C(=O)N[C@@H](CCCNC(=N)N)C(=O)N1CCC[C@H]1C(=O)NCC(N)=O [indium-111 labelled]	–	–	female athymic nude mice, kidneys	intravenous, 0.037 MBq, 0.5 h	–	tissue uptake	8.14 ± 1.1 %ID/g
N#C[C@@H]1CCCN1C(=O)CNC(=O)c1ccnc2ccc(OCCCN3CCN(C(=O)CCc4ccc5c(c4)CN4CCN(Cc6cc(CCC(=O)O)ccc6O)CC(=O)[O][Al-]([18F])([O]C(=O)C4)[O]5)CC3)cc12 (stereo partly shown)	HT1080 cells expressing human FAP	–	–	90 min, 37 °C	–	internalized fraction	75.6 ± 1.1%
O=c1cc(NCCCO)c2ccccc2o1	COS-7 (untransfected)	–	–	500 µM, unit not given	baseline: 3 µM ionomycin	calcium mobilisation signal	0.94 ± 0.35
CN1CCCNC(=O)c2cccc(c2)C(=O)NCCCN(C)CCCNc2cccc3c2C(=O)c2cccc(c2C3=O)NCCC1	SAS	RNA-Seq, item: CCDC39 mRNA	–	1 µM, 6 h	baseline: untreated cells	log2 fold change	-1.86
CCCC[C@H](NC(=O)COCCOCCNC(=O)CN1CCN(CC(=O)O)CCN(CC(=O)O)CC1)C(=O)N[C@H]1CC(=O)NCCCC[C@@H](C(N)=O)NC(=O)[C@H](Cc2c[nH]c3ccccc23)NC(=O)[C@H](CCCNC(=N)N)NC(=O)[C@@H](Cc2ccccc2)NC(=O)[C@H](Cc2c[nH]cn2)NC1=O [technetium-99m labelled]	–	–	C57 mouse, muscle	intravenous, 0.037 MBq, 24 h	–	tissue uptake	0.06 ± 0.02 %ID/g
CC[C@H](NC(=O)[C@@H](NC(=O)[C@H](CC(=O)O)NC(C)=O)[C@@H](C)O)C(=O)N[C@@H](CC(=O)O)C(=O)COC(=O)c1c(C)cccc1C	THP-1 cells, LPS-primed	pyroptosis, LDH release	–	25 µM, LPS 1 µg/mL, 4 h, together with: nigericin 5 µM, 2 h	–	cell lysis	83.9%
CC1(C)CC(=O)C2=C(C1)Oc1ccc3ccccc3c1C2c1c[nH]c2ccccc12 (stereo not shown)	3T3-L1 mature adipocytes	lipolysis, Oil Red O staining	–	IC20	–	mean lipid content	0.622 OD492
Cc1ccc(S(=O)(=O)NC23CCCC(C)(CCC4C2CC4(C)C)C3)cc1 (stereo not shown)	HT-29	cell growth or viability, CCK-8	–	10 µM	–	inhibition	< 50%
C[n+]1ccc(/C=N/NC(=O)c2cncc(C(=O)N/N=C/c3cc[n+](C)cc3)n2)cc1	22CTA telomeric G4-DNA antiparallel	FRET melting	–	1 µM, K10 buffer, DNA 0.2 µM	–	ΔTm	2.9 ± 0.4 °C
CNS(=O)(=O)Nc1nccc(Cc2c(C)c3ccc(Oc4ncccc4F)cc3oc2=O)c1F	NCI-H841	cell viability	–	7 days	–	IC50	> 1000 nM
O=C(N/N=C/c1cc[n+](CC2CC2)c2ccccc12)C(=O)N/N=C/c1cc[n+](CC2CC2)c2ccccc12	22CTA telomeric G4-DNA antiparallel	FRET melting	–	1 µM, K10 buffer, DNA 0.2 µM	–	ΔTm	6.3 ± 2 °C
CCC(=CCc1c(O)cc2c(c1O)C(=O)CC(c1ccc(O)cc1OC)O2)CC (stereo not shown)	HeLa	cell growth or viability, MTT	–	0.781 µM, 48 h	–	inhibition	9.59%
O=C(CCC(F)(F)F)Nc1ccc([C@H]2[C@@H](F)[C@@H](F)C[C@@H](F)[C@H]2F)cc1	–	hepatocyte stability	cryopreserved human hepatocytes	1 µM	–	hepatic clearance	19 mL/min/kg
CCc1c(-c2ccc3[nH]ncc3c2)cnc(N)c1-c1ccc(O)cc1	CHP-212 resistant sublines, USP7 V517F heterozygous	–	–	0.1953 µM	–	viability	108%
C[C@@H]1CC[C@@H]([C@@](C)(O)Cn2ccnc2)[C@H](OCc2ccccc2)C1	A2780	cell growth or viability, MTT	–	30 µM, 72 h	–	inhibition	49.5%
CCN(CC)CC(=O)Nc1cccc(-n2cc(-c3ccc4ccc(-c5cn(-c6cccc(NC(=O)CN(CC)CC)c6)nn5)cc4c3)nn2)c1	RCC4	PCR angiogenesis array, item: SERPINE1	–	5 x IC50, 2 h, normoxia	baseline: untreated	fold regulation	-1.14
CC12CCCC(NS(=O)(=O)c3ccc(Cl)c([N+](=O)[O-])c3)(C1)C1CC(C)(C)C1CC2 (stereo not shown)	HT-29	cell growth or viability, CCK-8	–	10 µM	–	inhibition	< 50%
CCC(=CCc1c(O)cc2c(c1O)C(=O)CC(c1ccc(O)c(OC)c1)O2)CC (stereo not shown)	HeLa	cell growth or viability, MTT	–	3.125 µM, 48 h	–	inhibition	12.8%
Cc1ccc(-n2cc(CSc3nc4ccccc4n3Cc3cn(-c4ccc(C)cc4)nn3)nn2)cc1	Caco-2	MTT	–	500 ppm	–	cytotoxicity	90.3%
